# Measurements from different studies.
# Parts stem from different laboratories: compare values within a part only. “And” joins repeats or separate records; there may be more than shown.

# Series 1
# Structure (SMILES): Cn1cc(-c2cccc(CN3CCC4(CC3)COc3c4ccc4c3CN([C@H]3CCC(=O)NC3=O)C4=O)c2)cn1
# Species: Crbn I391V mouse, MC-38 tumour
route,dose,time,notes,together with,tumour volume
"oral, daily",30 mg/kg,day 1,anti-PD1 combination study,,88.8 mm3 and 100 mm3 and 109 mm3 and 85.6 mm3 and 78 mm3
,30 mg/kg,day 13,,anti-LAG3 antibody 10 mg/kg weekly,532 mm3 and 336 mm3 and 910 mm3 and 844 mm3 and 298 mm3
oral,30 mg/kg once daily,day 3,,,151 mm3 and 117 mm3 and 126 mm3 and 81.5 mm3 and 148 mm3
,30 mg/kg,day 1,,anti-LAG3 antibody 10 mg/kg weekly,94.6 mm3 and 96.3 mm3 and 86.2 mm3 and 89.2 mm3 and 74.1 mm3

# Series 2
# SMILES: CCOC(=O)/C=C/CNCCCCN1c2ccccc2COc2ccc(Cl)cc21.O=C(O)/C=C\C(=O)O
# Target: E3 ubiquitin-protein ligase NEDD4, HECT domain (Homo sapiens, UniProt P46934)
# Observed: enzyme activity
# Mode: inhibitor
# Method: Ub-TR-FRET
# Medium: HECT domain
# Direction: higher = more chain formation
# Target sequence (P46934 938-1319, limits assumed): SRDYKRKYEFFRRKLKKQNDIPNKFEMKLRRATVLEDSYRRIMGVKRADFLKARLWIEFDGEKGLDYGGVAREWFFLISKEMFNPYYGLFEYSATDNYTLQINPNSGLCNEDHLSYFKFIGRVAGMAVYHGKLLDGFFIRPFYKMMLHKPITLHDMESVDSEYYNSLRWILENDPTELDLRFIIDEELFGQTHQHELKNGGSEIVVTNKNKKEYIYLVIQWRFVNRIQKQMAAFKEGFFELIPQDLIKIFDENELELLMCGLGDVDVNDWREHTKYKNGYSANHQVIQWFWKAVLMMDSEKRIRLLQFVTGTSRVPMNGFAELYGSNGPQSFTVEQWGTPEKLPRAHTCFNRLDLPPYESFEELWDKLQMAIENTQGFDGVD
tested at,ubiquitin chain formation AUC
33.33 µM,10700 a.u. and 10300 a.u.
0.1372 µM,82600 a.u. and 84700 a.u.
0.01524 µM,92500 a.u. and 91000 a.u. and 92600 a.u.
1.235 µM,21700 a.u. and 40600 a.u. and 22700 a.u.
0.005081 µM,93400 a.u. and 92500 a.u. and 93700 a.u.

# Series 3
# Structure (SMILES): COCC1CC2C(CCC3C(O)CCC32)c2ccc(O)cc21 (stereo not drawn)
# Cell line: SK-OV-3
# Method: DNA microarray
measured,tested at,baseline,expression ratio
ACTB,100 µM,untreated control,0.509 and 0.503 and 0.537 and 0.538 and 0.53
CCL1,100 µM,untreated,5.3
ADAMTS14,25 µM,untreated,3.74
CCL1,25 µM,untreated,5.4
ADAMTS14,100 µM,untreated,4.92
ACTA2,25 µM,untreated control,0.641
GAPDH,25 µM,untreated control,0.818 and 0.819 and 0.856 and 0.857 and 0.83
GAPDH,100 µM,untreated control,0.96 and 0.954 and 0.95 and 0.934 and 0.94

# Mixed results
Structure (SMILES),organism,observed,dose,notes,endpoint,value
C=CCN1C(=O)C(O)(C(=O)O)Oc2cc(F)ccc21 (stereo not drawn),Alopecurus aequalis,fresh weight,150 g ai/ha,pre-emergence treatment,inhibition,7.4% and 9.1% and 9.6%

# Some of these lines once more (series 2):
tested at,ubiquitin chain formation AUC
0.01524 µM,92500 a.u. and 91000 a.u. and 92600 a.u.
